Results gathered from unrelated publications.
Compare with care: the assays were run in different laboratories. Values joined by “and” are separate records of one study, mostly repeats; a detail may differ.

SMILES	cell line	test	setting	how to read	quantity	result
COC1CCN(C(=O)/C=C/c2nn(Cc3cccc(C(F)(F)F)c3)c3nc(N4CCCCC4)ncc23)CC1	FLO-1	cell growth or viability, resazurin	5 days	–	EC50	> 30000 nM
CC(C)c1ccc(N(C)c2ccc3c(c2)OCC[C@H]3CNc2cnccc2C(=O)O)cc1	HCC1187	cell growth or viability, ATP luminescence	7 days	–	IC50	6.51 nM
COc1ccccc1-c1ccncc1C(=O)Nc1nnc(OCc2ccc(Cl)cc2)s1	MDA-MB-436 BRCA1-mutant	–	0.375 µM	relative to: vehicle control	colony survival	57.7% and 66.7% and 61.7%
COc1cc(N2CCN(C(=O)CCOCCNC(=O)[C@@H]3CCCN3)CC2)ccc1Nc1ncc(Cl)c(Nc2ccccc2P(C)(C)=O)n1	NCI-H3122	flow cytometry	500 nM, 24 h	–	S phase cells	30%
CC12CCCC(NS(=O)(=O)c3cccc(N)c3)(C1)C1CC(C)(C)C1CC2 (stereo not drawn)	HT-29	cell growth or viability, CCK-8	50 µM	–	inhibition	98.3%
CCC(=CCc1c(O)cc2c(c1O)C(=O)CC(c1cccc(O)c1OC)O2)CC (stereo not drawn)	HeLa	cell growth or viability, MTT	25 µM, 48 h	–	inhibition	50.9%
O=C(C[Se]C(=O)c1cc2ccccc2s1)Nc1cccc(C(F)(F)F)c1	NCI60 NSCLC subpanel mean	cell growth	–	–	TGI	3040 nM
COc1ccc(C2CC(=O)c3c(cc(O)c(CC=C(C)C)c3O)O2)cc1 (stereo not drawn)	HeLa	cell growth or viability, MTT	12.5 µM, 48 h	–	inhibition	16.4%
O=S(=O)(N[C@H]1CCO[C@@H](C2c3ccccc3CCc3ccccc32)C1)c1ccc(OC(F)(F)F)cc1	D341	immunoblot, item: CIP2A	concentration not given	–	protein level	decreased
CCc1c(-c2ccc3[nH]ncc3c2)cnc(N)c1-c1ccc(O)cc1	CHP-212 resistant sublines, USP7 V517F heterozygous	–	12.5 µM	–	viability	92.3%
CCN(CC)CC(=O)Nc1cccc(-n2cc(-c3ccc4ccc(-c5cn(-c6cccc(NC(=O)CN(CC)CC)c6)nn5)cc4c3)nn2)c1	RCC4	PCR angiogenesis array, item: SERPINE1	5 x IC50, 2 h, normoxia	relative to: untreated	fold regulation	-1.14
CC(=O)N1CCC[C@H]1C(=O)N[C@@H](CCC(N)=O)C(=O)N[C@@H](C)C(=O)N[C@@H](CC(=O)O)C(=O)COC(=O)c1c(C)cccc1C	THP-1 cells, LPS-primed	pyroptosis, LDH release	25 µM, LPS 1 µg/mL, 4 h, together with: nigericin 5 µM, 2 h	–	cell lysis	55.8% and 63.8%
Cn1ncc2cc(-c3cncc(Cl)c3N3CCC4(CCNC4=O)CC3)ccc21	LS174T	gene expression, microarray, item: TFF1 mRNA	concentration not given, 24 h	relative to: untreated cells	log2 fold change	3.12
COc1ccc(CNC[C@@](O)(COCc2ccccc2)[C@@H]2CC[C@@H](C)C[C@H]2OCc2ccccc2)cc1	A2780	cell growth or viability, MTT	30 µM, 72 h	–	inhibition	99.2%
Cc1ccc(S(=O)(=O)NC23CCCC(C)(CCC4C2CC4(C)C)C3)cc1 (stereo not drawn)	HT-29	cell growth or viability, CCK-8	50 µM	–	inhibition	94.6%
CNS(=O)(=O)Nc1nccc(Cc2c(C)c3ccc(Oc4ncccc4F)cc3oc2=O)c1F	AM-38	cell viability	7 days	–	IC50	322 nM
CN1CCCNC(=O)c2cccc(c2)C(=O)NCCCN(C)CCCNc2cccc3c2C(=O)c2cccc(c2C3=O)NCCC1	SAS	RNA-Seq, item: ASB13 mRNA	1 µM, 6 h	relative to: untreated cells	log2 fold change	0.876
Cc1ncsc1-c1ccc(C(C)NC(=O)C2CC(O)CN2C(=O)C(NC(=O)CCCCCCCCCCN2CCCC(Nc3ncc(Cl)c(Nc4ccccc4S(=O)(=O)C(C)C)n3)C2)C(C)(C)C)cc1 (stereo not drawn)	22Rv1	RNA-seq, item: ZNF66 mRNA	concentration not given	relative to: DMSO	log2 fold change	-2.71

For quick reference, copied from above:
SMILES	cell line	test	setting	how to read	quantity	result
CCC(=CCc1c(O)cc2c(c1O)C(=O)CC(c1cccc(O)c1OC)O2)CC (stereo not drawn)	HeLa	cell growth or viability, MTT	25 µM, 48 h	–	inhibition	50.9%
O=C(C[Se]C(=O)c1cc2ccccc2s1)Nc1cccc(C(F)(F)F)c1	NCI60 NSCLC subpanel mean	cell growth	–	–	TGI	3040 nM
